# Measurements of several laboratories.
# Every numbered part comes from another study and shows a few of its results, in no order. Changes are numbered by the printed parent chain.

# Set 1 — technique: universal PBM; molecule type: double-stranded DNA, one strand shown; sample: in vitro; concentration: 600 nM; reading: higher = stronger binding
# Target: Sal-like protein 4, full length isoform A (SALL4, Homo sapiens, UniProt Q9UJQ4, residues 1-1053)
# UniProt Q9UJQ4, sequence (whole entry, looked up): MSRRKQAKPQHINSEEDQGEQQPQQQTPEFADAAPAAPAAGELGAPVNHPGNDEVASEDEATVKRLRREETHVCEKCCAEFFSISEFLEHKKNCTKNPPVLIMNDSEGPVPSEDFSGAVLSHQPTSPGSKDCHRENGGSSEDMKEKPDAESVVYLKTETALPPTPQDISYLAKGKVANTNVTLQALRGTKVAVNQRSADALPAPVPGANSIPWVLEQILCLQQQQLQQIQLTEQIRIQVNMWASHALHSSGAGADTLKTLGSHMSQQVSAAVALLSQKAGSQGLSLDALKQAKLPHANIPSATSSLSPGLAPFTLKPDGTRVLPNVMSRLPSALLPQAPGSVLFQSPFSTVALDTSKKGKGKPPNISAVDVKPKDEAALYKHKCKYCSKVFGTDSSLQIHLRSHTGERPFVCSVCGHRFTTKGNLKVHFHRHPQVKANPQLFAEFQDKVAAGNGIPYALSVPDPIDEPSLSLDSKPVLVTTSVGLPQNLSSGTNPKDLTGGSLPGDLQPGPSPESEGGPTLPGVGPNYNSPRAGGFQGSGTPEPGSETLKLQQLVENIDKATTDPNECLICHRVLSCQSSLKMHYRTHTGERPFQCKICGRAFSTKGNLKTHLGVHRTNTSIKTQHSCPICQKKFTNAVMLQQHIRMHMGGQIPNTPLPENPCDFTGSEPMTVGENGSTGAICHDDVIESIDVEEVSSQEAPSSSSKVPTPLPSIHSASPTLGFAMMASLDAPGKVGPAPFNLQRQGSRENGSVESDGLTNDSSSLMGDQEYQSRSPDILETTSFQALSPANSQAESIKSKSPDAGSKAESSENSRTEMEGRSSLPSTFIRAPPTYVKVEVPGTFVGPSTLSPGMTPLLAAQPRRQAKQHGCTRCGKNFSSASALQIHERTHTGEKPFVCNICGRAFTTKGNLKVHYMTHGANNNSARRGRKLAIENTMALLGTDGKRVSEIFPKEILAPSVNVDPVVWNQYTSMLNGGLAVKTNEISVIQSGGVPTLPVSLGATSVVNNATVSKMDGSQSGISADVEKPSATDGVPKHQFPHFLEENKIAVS
# Notes: 8-mer, flanks averaged, mean of replicates
Oligonucleotide,E-score
GACCGTTA,0.119
ATCACGGA,0.0903
ACCAATTA,0.292
AAGCAAGC,0.00013
AACGTATT,0.224
AGAGTCCA,-0.0636
GAAATGCA,0.134
ACCAAACC,-0.0716
CATTGGCG,-0.156
AGCCCGTA,-0.134
GCCTGTGA,-0.202
AATTGCAG,0.15
GCATCTGA,-0.173
AAACTCTT,0.0386
CTAACTTA,0.255
ACTGGTGA,0.00512
ACCCCTGA,-0.0566
GACTGTGC,-0.0991
AAATGGGC,-0.104
AACGCCAC,-0.267
AACGATCA,0.0935
CCTAAGAC,-0.146
CGACTACA,0.0729
CGTTAGGA,-0.061
GGGCACCC,-0.304

# Set 2 — target: CCNB3, cyclin fold, Cln2 fusion (human); technique: yeast growth competition, sequencing; sample: yeast; notes: weak parent motif; baseline: not given; reading: higher = stronger binding
# Starting sequence: GMNC docking peptide (human); KNAKRNLSSEFAN
Substitution,normalised enrichment score
KNAKRNLSSEQAN [F11Q],0.341
KNAKRNVSSEFAN [L7V],-0.105
KNAKRNLSSNFAN [E10N],-0.0881
KNAKRNLSYEFAN [S9Y],0.583
KNAKRNLSSTFAN [E10T],0.129
KNAKRNLWSEFAN [S8W],0.12
KNAQRNLSSEFAN [K4Q],0.111
KNAKRNLSSEWAN [F11W],0.341
KNAKRNLSSEFCN [A12C],0.122
KNAKRRLSSEFAN [N6R],0.0447
KNAKKNLSSEFAN [R5K],0.291
KNAKRNLSSEFGN [A12G],0.118
KNQKRNLSSEFAN [A3Q],0.509
KNAKRNLMSEFAN [S8M],1.08
KNAKRNLSSEFHN [A12H],0.0457
KNAKRNLSSEAAN [F11A],0.285
KNGKRNLSSEFAN [A3G],0.186
KNAKRNCSSEFAN [L7C],-0.03
KNAKRNLSLEFAN [S9L],0.359
KNAWRNLSSEFAN [K4W],0.321
KNAKRVLSSEFAN [N6V],-0.00571
KNAKRNLSNEFAN [S9N],0.357
KNARRNLSSEFAN [K4R],0.954
KNAKRNLSSRFAN [E10R],0.606

# Set 3 — technique: DHFR PCA, deep sequencing; sample: yeast; together with: (+)-ABA 710 µM; baseline: wild-type fitted maximum; reading: higher = stronger binding
# Target: ABI1, truncated, D143A, DHFR fusion (Arabidopsis thaliana)
# Notes: methotrexate growth selection, single substitutions
# Starting sequence: PYL1, truncated, DHFR fusion (Arabidopsis thaliana); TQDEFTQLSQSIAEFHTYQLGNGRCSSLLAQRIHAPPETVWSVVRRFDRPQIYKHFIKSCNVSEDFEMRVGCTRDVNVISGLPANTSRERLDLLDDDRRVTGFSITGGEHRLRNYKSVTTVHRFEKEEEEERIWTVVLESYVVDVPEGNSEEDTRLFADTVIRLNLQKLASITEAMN
Substitution,relative binding score [%]
E147V,97.2
E174R,93.7
K58N,97.3
R99Q,114
R90V,96.2
H55Q,115
L156T,105
T101H,93.9
S117K,16
V142T,101
L94F,99.5
F47Y,83.3
E130V,109
R163P,-6.44
F56Y,98.2
D92A,82.1
L94P,2.73
A35W,23.9
Q7N,107

# Set 4 — target: BATF, bZIP domain (human); technique: DHFR protein complementation; sample: yeast; baseline: wild-type JUN-FOS pair; reading: higher = stronger binding
# Notes: single substitutions, most at no-binding floor
# Starting sequence: JUN, bZIP domain (human); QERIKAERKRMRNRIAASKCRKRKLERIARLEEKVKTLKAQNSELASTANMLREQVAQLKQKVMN; partner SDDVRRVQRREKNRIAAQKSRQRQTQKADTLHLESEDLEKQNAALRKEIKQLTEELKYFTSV
Substitution,binding fitness
Q55A,-0.0526 natural log
S47K,0.101 natural log
A46C,-0.0522 natural log
Q55S,-0.134 natural log
R53A,-0.195 natural log
K34D,-0.126 natural log
L31Y,-0.0981 natural log
Q41F,-1.3 natural log
R53S,-0.398 natural log
V56C,-0.202 natural log
A46P,-1.26 natural log
K36P,-0.945 natural log
R30S,0.118 natural log
N42W,-0.31 natural log
E33V,-0.192 natural log
V56G,-1.04 natural log
T48E,-0.0936 natural log
T37Y,-0.0329 natural log
E44Q,-0.0149 natural log
E32W,-0.362 natural log
A29T,-0.0206 natural log
K39G,-0.366 natural log
L45E,-1.17 natural log
V56N,-0.933 natural log
A49S,-0.361 natural log

# Set 5 — technique: protein-binding microarray; molecule type: double-stranded DNA, one strand shown; sample: in vitro; concentration: 940 nM top; notes: 60-bp whole probe; together with: salmon DNA 0.4 mg/ml; baseline: random background probes; reading: higher = stronger binding; shared flanks, not repeated: GCCTAGCAC … GTCTTGATTCGCTTGACGCTGCTG
# Target: Interferon regulatory factor 5, full length, phosphomimetic (IRF5, Homo sapiens, UniProt Q13568-2, residues 1-514, S451D/S453D/S456D/S462D)
Oligonucleotide,fitted relative affinity
GACGGTTTCGGCATCGGGACGTGCTAG,7.54 z-score
TTAGGTTTCGACTTTCGGTAAGTGCTA,9.4 z-score
TTAGGACTGGACTATCGGTTGGTGCTA,-0.297 z-score
CTAGGACTGGGTATCGGTTAGTGCTAG,3.54 z-score
GACGGTTTCAACTATCGGGACGTGCTA,2.5 z-score
TTAGGTCCCGGTATCGGTTAGTGCTAG,4.73 z-score
GACGGACTGGGGATTCGGGACGTGCTA,0.0219 z-score
TTAAAACTGAGTTTCGATTAGTGCTAG,8.43 z-score
GACGATCTCAGTTTCCAGACGTGCTAG,0.683 z-score
CTAGGTATCGACACTGGGTTAGTGCTA,4.04 z-score
GGTAGGCGGGGCCCCTGGCCGTGCTAG,-0.957 z-score
TCAGATTTTTTTTCCTAACTGTGCTAG,1.17 z-score
TTAGATTACAGACTGGATTAGTGCTAG,-0.411 z-score
GAAGATTTCGGGTTTCGAGACGTGCTA,2.05 z-score
TTAGGACTGGGTCTCGGTTTGTGCTAG,1.23 z-score
GACGGTTTCAACACTGGGGACGTGCTA,1.91 z-score
GACGGATTCGGGTATCGGGACGTGCTA,1.05 z-score
TCAACTTTCACTTCTCCACTGTGCTAG,3.61 z-score
GGTCATGTCTGTGTCACAGAGTGCTAG,-0.506 z-score
GACGATTTCATTTCCGAGACGTGCTAG,0.86 z-score
TCAGAAATCGGTGATCAGACTGTGCTA,-0.44 z-score
GACGGTCTCCTTATCTTGACGTGCTAG,0.518 z-score
TTAGGTCTCCTTCACCTTTAGTGCTAG,0.327 z-score
TTAGATATCAGTTTCGATTTGTGCTAG,7.88 z-score
CTGTTTTTGCTTTCCTTCATGTGCTAG,1.88 z-score

# Set 6 — technique: protein binding microarray; molecule type: double-stranded DNA, one strand shown; sample: in vitro; concentration: not given; baseline: not given; reading: higher = stronger binding
# Target: Histone acetyltransferase KAT6A, winged helix 2, GST fusion (KAT6A, Homo sapiens, UniProt Q92794, residues 85-181)
# Notes: 8-mer, flanks averaged, mean of 2 arrays, mostly near background
# Residues (chain): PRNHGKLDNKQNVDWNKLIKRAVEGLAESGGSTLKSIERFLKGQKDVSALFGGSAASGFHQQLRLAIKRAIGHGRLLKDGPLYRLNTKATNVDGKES
Oligonucleotide,E-score
CCGTCCGA,0.0739
GTTTAGCA,0.188
GAAGGCGC,0.158
CCTATGGA,-0.149
ACGTCCTG,-0.188
CGCCCGCA,0.294
GGGGTAAA,0.0184
CTGAGCCA,-0.116
GTAACGGA,0.057
ACGGTCGC,0.0689
AGGCCGAT,0.112
ATGTGTTC,0.0427
CCTTAACA,-0.16
ACCCGGGT,0.126
ATAACCAG,-0.0242
ATGTCATG,0.0121

# Some of these lines once more (set 5):
Oligonucleotide,fitted relative affinity
TTAGGTCCCGGTATCGGTTAGTGCTAG,4.73 z-score
GACGATCTCAGTTTCCAGACGTGCTAG,0.683 z-score
TTAGGACTGGACTATCGGTTGGTGCTA,-0.297 z-score
TCAACTTTCACTTCTCCACTGTGCTAG,3.61 z-score
GGTAGGCGGGGCCCCTGGCCGTGCTAG,-0.957 z-score
TTAGGTCTCCTTCACCTTTAGTGCTAG,0.327 z-score
GACGGTTTCAACACTGGGGACGTGCTA,1.91 z-score
GACGGTTTCAACTATCGGGACGTGCTA,2.5 z-score
GACGGACTGGGGATTCGGGACGTGCTA,0.0219 z-score
GACGGATTCGGGTATCGGGACGTGCTA,1.05 z-score
TTAGATATCAGTTTCGATTTGTGCTAG,7.88 z-score
